Experimental data gathered from unrelated publications.
Compare with care: the assays were run in different laboratories. ± gives the spread as reported.

SMILES	target or system	assay	system	conditions	endpoint	result
CSCC[C@H](NC(=O)[C@H](CC(C)C)NC(=O)[C@H](Cc1c[nH]cn1)NC(=O)CNC(=O)[C@@H](NC(=O)[C@H](C)NC(=O)[C@H](Cc1c[nH]c2ccccc12)NC(=O)[C@H](CCC(N)=O)NC(=O)CCCCCNC(=O)CNC(=O)CNC(=O)CNC(=O)CSC(C)=O)C(C)C)C(N)=O [technetium-99m labelled]			nude mouse, PC-3 xenograft, heart	30 min, with: excess unlabelled conjugate	tissue uptake	0.54 ± 0.04 %ID/g
N=C(N)NCCC[C@@H]1NC(=O)[C@H](CCCCNC(=O)CC[C@H](NC(=O)CCOCCOCCOCCOCCNC(=O)CN2CCN(CC(=O)O)CCN(CC(=O)O)CCN(CC(=O)O)CC2)C(=O)NCCCC[C@@H]2NC(=O)[C@@H](Cc3ccccc3)NC(=O)[C@H](CC(=O)O)NC(=O)CNC(=O)[C@H](CCCNC(=N)N)NC2=O)NC(=O)[C@@H](Cc2ccccc2)NC(=O)[C@H](CC(=O)O)NC(=O)CNC1=O [indium-111 labelled]			athymic nude mice, female, U-87 MG glioma xenograft, U-87 MG tumour	intravenous, 3 µCi, 72 h	tissue uptake	1.55 ± 0.21 %ID/g
COc1cc(C(=O)NCCOCCOCCOCCNC(=O)c2ccc([18F])nc2)ccc1NC(=O)C1NC(CC(C)(C)C)C(C#N)(c2ccc(Cl)cc2F)C1c1cccc(Cl)c1F (centres unmarked)	HepG2 tumour model		host not given, brain	30 min, tumour-bearing	tracer uptake	0.84 %ID/g
CN(C)CC1CCCCC1(O)c1cccc(O)c1 (centres unmarked)			Caco-2	100 µM, 3 h, pH 7.4	Papp A→B	12.2 ×10⁻⁶ cm/s
CN[C@](C)(C[18F])C(=O)O	SK-OV-3 tumour model		host not given, blood	2 h, tumour-bearing	tracer uptake	0.8 %ID/g
O=C(O)CCC(NP(=O)(O)OCCC[C@@H](NC(=O)CCC(NC(=O)CCCCCNC(=O)c1ccc([18F])cc1)C(=O)O)C(=O)O)C(=O)O (some centres unmarked)	PC-3 tumour model		host not given, lung	intravenous, 2 h, tumour-bearing	tracer uptake	0.27 %ID/g
COc1ccc(CNc2nc(N3CCC[C@H]3CO)ncc2C(=O)NN)cc1Cl	Salmonella typhimurium		TA98	500 µg/plate, 48 h	revertant count	43 ± 5
C[C@@](O)(C(F)F)[C@H](NC(=O)c1ccc(C#CC#CC2CC2)cc1)C(=O)NO			dog, plasma	intravenous, 10 mg/kg	clearance	32 mL/min/kg
COc1ccc(CNc2nc(N3CCC[C@H]3CO)ncc2C(=O)NNC(=O)c2cnc(N3CCC[C@H]3CO)nc2NCc2ccc(OC)c(Cl)c2)cc1Cl	Salmonella typhimurium		TA97a	500 µg/plate, 48 h, with: rat liver S9	revertant count	137 ± 12
CCC(=O)N(C)c1ccc(Cl)c(Cl)c1	Salmonella typhimurium	Ames test	TA100	0.05 mg/plate, without S9	revertants	86 ± 11.9 revertants/plate
O=C(O)CCC(NP(=O)(O)OCCC[C@@H](NC(=O)CCC(NC(=O)CCCCCNC(=O)CCCCCNC(=O)c1ccc([18F])cc1)C(=O)O)C(=O)O)C(=O)O (some centres unmarked)	PC-3 tumour model		host not given, heart	intravenous, 2 h, tumour-bearing	tracer uptake	0.07 %ID/g
CC[C@H](C)C(=O)N1CCC(NC(=O)Nc2ccc(OC(F)(F)F)c(F)c2)CC1			human, plasma	oral, 2 mg, single dose, healthy volunteers	AUC	119 ng·h/mL
O=C(O)CCC(NP(=O)(O)OCCC[C@@H](NC(=O)CCC(NC(=O)c1ccc([18F])cc1)C(=O)O)C(=O)O)C(=O)O (some centres unmarked)	PC-3 tumour model		host not given, kidney	intravenous, 2 h, tumour-bearing	tracer uptake	5.46 %ID/g
N=C(N)NCCC[C@@H]1NC(=O)[C@H](CCCCNC(=O)CCOCCOCCOCCOCCNC(=O)CN2CCN(CC(=O)O)CCN(CC(=O)O)CCN(CC(=O)O)CC2)NC(=O)[C@@H](Cc2ccccc2)NC(=O)[C@H](CC(=O)O)NC(=O)CNC1=O [indium-111 labelled]			female athymic nude mice, eyes	intravenous, 3 µCi, 0.5 h, U-87 MG glioma xenograft	tissue uptake	0.85 ± 0.15 %ID/g

Excerpt of the above:
SMILES	target or system	assay	system	conditions	endpoint	result
CN(C)CC1CCCCC1(O)c1cccc(O)c1 (centres unmarked)			Caco-2	100 µM, 3 h, pH 7.4	Papp A→B	12.2 ×10⁻⁶ cm/s
CN[C@](C)(C[18F])C(=O)O	SK-OV-3 tumour model		host not given, blood	2 h, tumour-bearing	tracer uptake	0.8 %ID/g
